Measured values pooled from the literature.
Protocols differ between the studies behind these lines. “And” joins repeats or separate records; there may be more than shown. ± marks the error that the study gave.
PTGS1: Prostaglandin G/H synthase 1 (PTGS1, Homo sapiens, UniProt P23219)
Chain of UniProt P23219 (whole entry, looked up): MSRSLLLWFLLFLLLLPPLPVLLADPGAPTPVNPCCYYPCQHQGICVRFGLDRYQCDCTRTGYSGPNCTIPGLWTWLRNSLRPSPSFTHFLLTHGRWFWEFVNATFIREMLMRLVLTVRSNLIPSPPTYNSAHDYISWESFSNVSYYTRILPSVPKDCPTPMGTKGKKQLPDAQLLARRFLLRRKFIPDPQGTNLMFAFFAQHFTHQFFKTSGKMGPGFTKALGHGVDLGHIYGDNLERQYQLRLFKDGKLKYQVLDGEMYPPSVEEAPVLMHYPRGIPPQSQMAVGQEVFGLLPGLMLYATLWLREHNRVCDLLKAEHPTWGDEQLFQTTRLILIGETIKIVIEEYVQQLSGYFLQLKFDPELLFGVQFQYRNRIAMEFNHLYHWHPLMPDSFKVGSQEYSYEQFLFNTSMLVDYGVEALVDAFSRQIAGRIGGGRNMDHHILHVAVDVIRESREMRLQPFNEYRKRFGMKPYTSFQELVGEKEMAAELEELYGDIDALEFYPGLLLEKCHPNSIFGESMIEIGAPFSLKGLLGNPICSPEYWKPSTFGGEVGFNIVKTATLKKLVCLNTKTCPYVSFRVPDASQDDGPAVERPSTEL
PSMB7 in 20S proteasome: Proteasome subunit beta type-7, in 20S proteasome (PSMB7, Homo sapiens, UniProt Q99436)
Chain of UniProt Q99436 (whole entry, looked up): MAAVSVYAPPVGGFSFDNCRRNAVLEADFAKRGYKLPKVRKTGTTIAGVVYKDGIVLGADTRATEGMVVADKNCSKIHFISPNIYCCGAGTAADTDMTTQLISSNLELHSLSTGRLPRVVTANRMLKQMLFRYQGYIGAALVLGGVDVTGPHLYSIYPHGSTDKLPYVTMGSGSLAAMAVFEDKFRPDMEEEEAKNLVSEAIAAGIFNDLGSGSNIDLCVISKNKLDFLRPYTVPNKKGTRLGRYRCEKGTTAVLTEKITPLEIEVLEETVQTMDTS
Seed linoleate 13S-lipoxygenase-1: Seed linoleate 13S-lipoxygenase-1 (Glycine max, UniProt P08170)
Chain of UniProt P08170 (whole entry, looked up): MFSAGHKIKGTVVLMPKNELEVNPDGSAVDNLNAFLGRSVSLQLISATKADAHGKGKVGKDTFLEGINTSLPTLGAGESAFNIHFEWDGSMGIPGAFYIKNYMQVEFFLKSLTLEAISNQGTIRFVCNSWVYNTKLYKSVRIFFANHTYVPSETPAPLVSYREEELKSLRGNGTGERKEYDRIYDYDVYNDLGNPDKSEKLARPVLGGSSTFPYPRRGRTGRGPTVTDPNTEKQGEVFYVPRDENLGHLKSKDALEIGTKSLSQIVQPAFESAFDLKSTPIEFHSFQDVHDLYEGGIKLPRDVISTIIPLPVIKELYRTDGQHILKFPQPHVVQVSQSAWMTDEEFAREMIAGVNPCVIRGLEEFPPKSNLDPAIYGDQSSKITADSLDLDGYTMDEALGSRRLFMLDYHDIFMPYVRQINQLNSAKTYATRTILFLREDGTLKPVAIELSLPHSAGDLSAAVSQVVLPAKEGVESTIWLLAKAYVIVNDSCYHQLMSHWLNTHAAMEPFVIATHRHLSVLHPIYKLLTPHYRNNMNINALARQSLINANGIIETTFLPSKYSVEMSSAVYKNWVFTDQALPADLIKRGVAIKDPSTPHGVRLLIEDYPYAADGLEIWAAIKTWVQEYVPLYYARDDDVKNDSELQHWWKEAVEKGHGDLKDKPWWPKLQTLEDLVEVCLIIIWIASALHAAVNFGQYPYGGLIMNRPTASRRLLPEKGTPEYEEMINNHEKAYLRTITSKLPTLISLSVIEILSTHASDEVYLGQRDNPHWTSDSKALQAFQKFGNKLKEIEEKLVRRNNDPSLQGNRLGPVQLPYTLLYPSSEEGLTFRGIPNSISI
CD38: ADP-ribosyl cyclase/cyclic ADP-ribose hydrolase 1 (CD38, Homo sapiens, UniProt P28907)
Chain of UniProt P28907 (whole entry, looked up): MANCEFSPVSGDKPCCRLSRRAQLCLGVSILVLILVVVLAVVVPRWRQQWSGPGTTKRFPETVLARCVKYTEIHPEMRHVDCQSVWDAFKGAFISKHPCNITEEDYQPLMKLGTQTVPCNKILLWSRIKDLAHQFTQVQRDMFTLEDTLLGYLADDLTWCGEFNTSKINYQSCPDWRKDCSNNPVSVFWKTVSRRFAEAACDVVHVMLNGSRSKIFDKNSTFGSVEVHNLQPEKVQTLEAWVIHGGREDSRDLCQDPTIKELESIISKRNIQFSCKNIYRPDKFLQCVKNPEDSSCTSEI
Chain of UniProt Q04771 (whole entry, unmodified, looked up): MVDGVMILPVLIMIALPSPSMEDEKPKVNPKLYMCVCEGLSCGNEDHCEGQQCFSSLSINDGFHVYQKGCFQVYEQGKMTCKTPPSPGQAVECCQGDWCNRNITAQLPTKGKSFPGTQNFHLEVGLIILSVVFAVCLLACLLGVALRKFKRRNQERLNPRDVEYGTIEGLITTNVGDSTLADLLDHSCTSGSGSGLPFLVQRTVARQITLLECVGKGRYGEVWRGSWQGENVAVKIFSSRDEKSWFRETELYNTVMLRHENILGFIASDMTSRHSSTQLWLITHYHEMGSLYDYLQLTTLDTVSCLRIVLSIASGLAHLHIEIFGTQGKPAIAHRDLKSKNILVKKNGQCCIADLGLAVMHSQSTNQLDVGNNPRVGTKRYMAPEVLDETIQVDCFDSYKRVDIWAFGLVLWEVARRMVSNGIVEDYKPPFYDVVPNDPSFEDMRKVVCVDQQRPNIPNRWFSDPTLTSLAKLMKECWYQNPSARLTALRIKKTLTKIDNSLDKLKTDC
Chain of UniProt Q9NUW8 (whole entry, looked up): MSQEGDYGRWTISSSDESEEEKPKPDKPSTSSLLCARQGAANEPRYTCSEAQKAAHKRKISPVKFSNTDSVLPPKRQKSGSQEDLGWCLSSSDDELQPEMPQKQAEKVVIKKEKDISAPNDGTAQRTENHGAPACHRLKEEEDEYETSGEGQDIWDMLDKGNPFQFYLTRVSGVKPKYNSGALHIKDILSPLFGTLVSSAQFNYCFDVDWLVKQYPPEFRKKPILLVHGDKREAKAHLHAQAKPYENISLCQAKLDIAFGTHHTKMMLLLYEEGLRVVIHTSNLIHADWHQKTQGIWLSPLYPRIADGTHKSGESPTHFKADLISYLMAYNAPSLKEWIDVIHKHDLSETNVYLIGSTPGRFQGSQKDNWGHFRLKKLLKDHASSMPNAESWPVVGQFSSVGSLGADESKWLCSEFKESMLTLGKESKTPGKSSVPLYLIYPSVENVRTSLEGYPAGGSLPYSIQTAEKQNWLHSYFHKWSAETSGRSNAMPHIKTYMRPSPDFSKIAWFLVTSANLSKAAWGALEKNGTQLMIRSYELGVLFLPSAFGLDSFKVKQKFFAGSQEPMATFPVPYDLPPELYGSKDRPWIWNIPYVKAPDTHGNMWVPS
Chain of UniProt P08183 (whole entry, looked up): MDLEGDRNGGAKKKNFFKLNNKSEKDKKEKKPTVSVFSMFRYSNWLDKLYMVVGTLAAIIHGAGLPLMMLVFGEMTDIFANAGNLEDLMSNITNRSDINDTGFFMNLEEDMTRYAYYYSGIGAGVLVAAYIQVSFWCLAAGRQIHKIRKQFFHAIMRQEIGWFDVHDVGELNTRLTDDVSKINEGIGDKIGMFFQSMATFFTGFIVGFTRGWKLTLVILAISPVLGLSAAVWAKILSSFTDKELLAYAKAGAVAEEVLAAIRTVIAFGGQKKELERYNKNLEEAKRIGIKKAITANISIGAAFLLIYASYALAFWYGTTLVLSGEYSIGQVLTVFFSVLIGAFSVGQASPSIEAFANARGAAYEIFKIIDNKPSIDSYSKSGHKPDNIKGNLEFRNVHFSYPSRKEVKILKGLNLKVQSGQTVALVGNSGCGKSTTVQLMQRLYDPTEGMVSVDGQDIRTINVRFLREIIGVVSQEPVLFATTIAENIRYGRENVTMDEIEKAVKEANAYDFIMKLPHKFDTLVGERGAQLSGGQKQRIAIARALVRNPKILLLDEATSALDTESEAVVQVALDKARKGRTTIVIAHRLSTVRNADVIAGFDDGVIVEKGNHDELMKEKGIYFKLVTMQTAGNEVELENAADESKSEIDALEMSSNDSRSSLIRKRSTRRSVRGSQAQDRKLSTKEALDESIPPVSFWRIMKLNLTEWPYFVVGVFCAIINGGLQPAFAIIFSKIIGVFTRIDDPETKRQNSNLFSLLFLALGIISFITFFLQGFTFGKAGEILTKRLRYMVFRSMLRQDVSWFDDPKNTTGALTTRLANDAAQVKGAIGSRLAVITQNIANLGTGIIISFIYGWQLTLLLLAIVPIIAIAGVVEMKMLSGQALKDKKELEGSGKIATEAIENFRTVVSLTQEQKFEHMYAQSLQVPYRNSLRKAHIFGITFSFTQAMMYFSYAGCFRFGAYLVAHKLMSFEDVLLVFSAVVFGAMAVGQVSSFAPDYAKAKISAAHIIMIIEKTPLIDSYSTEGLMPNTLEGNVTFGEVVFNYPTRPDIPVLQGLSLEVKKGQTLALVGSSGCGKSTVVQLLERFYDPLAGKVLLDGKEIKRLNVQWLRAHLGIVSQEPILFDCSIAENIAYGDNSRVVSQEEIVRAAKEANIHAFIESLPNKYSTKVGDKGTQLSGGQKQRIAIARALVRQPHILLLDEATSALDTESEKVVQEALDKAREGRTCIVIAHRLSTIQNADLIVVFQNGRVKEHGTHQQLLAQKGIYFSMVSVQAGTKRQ
Chain of UniProt P01902 (whole entry, unmodified, looked up): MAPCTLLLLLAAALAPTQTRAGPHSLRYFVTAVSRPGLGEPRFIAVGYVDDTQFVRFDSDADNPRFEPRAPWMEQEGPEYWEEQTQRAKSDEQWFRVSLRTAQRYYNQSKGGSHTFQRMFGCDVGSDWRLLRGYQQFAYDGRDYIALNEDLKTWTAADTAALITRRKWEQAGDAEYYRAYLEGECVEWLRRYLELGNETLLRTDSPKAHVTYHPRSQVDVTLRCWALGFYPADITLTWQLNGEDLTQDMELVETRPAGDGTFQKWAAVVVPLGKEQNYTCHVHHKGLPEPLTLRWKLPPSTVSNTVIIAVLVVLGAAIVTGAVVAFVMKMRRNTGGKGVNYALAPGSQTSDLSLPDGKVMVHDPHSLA
Chain of UniProt P28161 (whole entry, looked up): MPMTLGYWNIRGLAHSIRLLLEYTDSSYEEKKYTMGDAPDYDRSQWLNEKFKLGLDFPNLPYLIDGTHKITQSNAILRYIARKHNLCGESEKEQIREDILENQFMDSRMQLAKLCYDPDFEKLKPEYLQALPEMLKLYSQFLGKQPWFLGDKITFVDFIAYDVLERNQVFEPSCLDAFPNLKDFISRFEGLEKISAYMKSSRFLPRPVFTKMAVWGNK

SMILES	target	assay	system	setting	IC50
CCC(CSCC(NC(=O)CCC(N)C(=O)O)C(=O)NCC(=O)O)C(=O)c1ccc(OCC(=O)NCCCCNC(=O)COc2ccc(C(=O)C(CC)CSCC(NC(=O)CCC(N)C(=O)O)C(=O)NCC(=O)O)c(Cl)c2Cl)c(Cl)c1Cl (centres unmarked)	Glutathione S-transferase Mu 2 (Homo sapiens, UniProt P28161)	enzyme activity, inhibitor, CDNB-GSH conjugation		preincubation 5.0 min with enzyme, together with: CDNB, GSH	~0.0055 µM
CSCC[C@H](NC(=O)[C@H](CC(C)C)NC(=O)CNC(=O)[C@@H]1CCCN1C(=O)[C@H](Cc1ccccc1)NC(=O)[C@@H](N)C(C)C)C(=O)N[C@@H](CCC(=O)O)C(=O)N[C@@H](CC(C)C)C(=O)O	H-2 class I histocompatibility antigen, K-D alpha chain, 29 (H2-K1, Mus musculus, UniProt P01902)	binding, competitor, radioligand competition		purified MHC, mutant peptide, together with: radiolabeled standard peptide	> 70 µM
O=C1Nc2ccc(Cl)cc2C1=Cc1ccc(-c2cccc(C(=O)NCC3CCNCC3)c2)o1 (mixture of isomers)	CSNK2A1 (Homo sapiens, UniProt P68400)	enzyme activity, inhibitor			1.43 µM
CC1=C(/C=C/C(C)=C/C=C/C(C)=C/C=O)C(C)(C)CCC1	CNGA1 (Bos taurus, UniProt Q00194)	cGMP-activated current, inhibitor, inside-out patch clamp		+100 mV, together with: saturating cGMP 2 mM	0.22 µM
O=C1Nc2ccc(-c3ccc(C(=O)N4CCOCC4)cc3)cc2/C1=C/c1ccc(N2CCNCC2)cc1	FGFR4 (Homo sapiens, UniProt P22455)	enzyme activity, inhibitor			28.1 µM
CCn1nc(-c2cc(Br)ccc2F)nc2c(=O)n(C)c(=O)nc1-2	TPR (Trypanosoma brucei brucei, UniProt P39051)	inhibitor, DTNB-coupled colourimetric		together with: substrate at Km	10.2 µM
COc1cc(F)cc(-c2nc3ccc(C(=O)NCCCN(C)C)cc3n2C2CCC2)c1	ACVR1 (Homo sapiens, UniProt Q04771, R206H)	binding, NanoBRET	HEK293		13.4 µM
CNC(=O)c1cc(C)ccc1NC(=O)c1ccc(-c2c(C)ccc3[nH]ncc23)c(C)c1	EPHA4 (Homo sapiens, UniProt P54764)	target engagement in cells, BRET			0.173 µM
N[C@@H](CCC(=O)N[C@@H](CS[Se]Cc1ccc(C(=O)Nc2cc(C(F)(F)F)c(Br)c(C(F)(F)F)c2)cc1)C(=O)NCC(=O)O)C(=O)O	PTPN5 (Homo sapiens, UniProt P54829)	enzyme activity, inhibitor		together with: pNPP, GSH 1 mM	6.2 ± 2.9 µM
O=C(O)c1ccc(-n2[nH]cc(-c3cccnc3)c2=O)nc1	EGLN2 (Homo sapiens, UniProt Q96KS0)	enzyme activity, inhibitor, europium VBC binding		10 µM FeSO4, 2 mM ascorbate, together with: 20 µM 2-oxoglutarate	0.49 µM
CC(C)(C)NCCCNC(=O)c1ccnc(C(F)(F)F)c1	MBT domain-containing protein 1 (Homo sapiens, UniProt Q05BQ5)	methyl-lysine reader binding, inhibitor, AlphaScreen			> 100 µM
Fc1ccc(NCc2cn(-c3ccccc3)nc2-c2ccc(OCc3ccccc3)cc2)cc1Cl	PTGS1	enzyme activity, inhibitor, absorbance			137 µM
Cc1nc(NC(=O)N2CCCC2)sc1-c1csc(C(C)(C)C)n1	PIK3C2A (Homo sapiens, UniProt O00443)	enzyme activity, inhibitor			> 10 µM
COC(=O)N1CCC(CN2CCC(CNC(=O)c3cccc4[nH]c(C(C)C)nc34)CC2)CC1	ABCB1 (Homo sapiens, UniProt P08183)	transport			> 10 µM
COc1cc(O)ccc1CCC(c1ccc(O)cc1)c1cc2c(c(C)c1O)OC(c1ccc(O)cc1)CC2 (mixture of isomers)	PTGS1	enzyme activity in cells, inhibitor			> 1 µM
CC(=O)NCCN(CC(=O)NCCN(CC(=O)NCCN(CC(=O)NCCC(N)=O)C(=O)[C@@H](N)Cc1ccccc1)C(=O)[C@@H](N)CCCNC(=N)N)C(=O)[C@@H](N)CCCNC(=N)N	HIV-1 TAR RNA	Tat/TAR complex displacement, FRET		room temperature, together with: 10 nM Tat/TAR complex	7.6 ± 0.7 µM
Cc1cc2oc(-c3cc(-c4cnn(C5CCNCC5)c4)cnc3N)nc2cc1O	JAK2 (Homo sapiens, UniProt O60674)	enzyme activity, inhibitor, TR-FRET			0.22 µM
N#Cc1ccc(-c2ccc(C=NOCc3ccc(-c4nc5cc(-c6ccccc6)ccn5c4Nc4ccc(C(=O)O)cc4)cc3)cc2)nc1	TDP1 (Homo sapiens, UniProt Q9NUW8)	enzyme activity, inhibitor, HPLC			0.38 µM
CN1C[C@H](c2cccc(C(F)(F)F)c2)[C@@H](C(=O)Nc2ccccc2F)C1=O	PYRD (Oryza sativa, UniProt Q7XKC8)	enzyme activity, inhibitor, absorbance			0.021 µM
Cc1c2c(cc3oc(=O)cc(-c4ccc(O)cc4)c13)C(=O)c1cccc(O)c1C2=O	mushroom tyrosinase	enzyme activity		together with: L-DOPA	> 100 µg/mL
COc1ccc(S(=O)(=O)n2nc(OC(=O)c3ccccc3)cc2N)cc1	Genome polyprotein, protease (West Nile virus, UniProt P06935)	enzyme activity, inhibitor, fluorescence		with preincubation	0.16 µM
C=C(NC(=O)C(=C)NC(=O)c1csc(C2=NC3c4csc(n4)C4NC(=O)c5csc(n5)C(C(C)(O)C(C)O)NC(=O)C5CSC(=N5)C(=CC)NC(=O)C(C(C)O)NC(=O)c5csc(n5)C3(CC2)NC(=O)C(CO)NC(=O)C(=C)NC(=O)C(C)NC(=O)C(C(C)CC)NC2C=Cc3c(C(C)O)cc(nc3C2O)C(=O)OC4C)n1)C(N)=O (centres unmarked)	PSMB7 in 20S proteasome	trypsin-like activity, inhibitor	purified 20S proteasome	15 min preincubation, 37 °C, together with: Boc-Leu-Arg-Arg-AMC substrate	0.39 ± 0.03 µM

SMILES	target	assay	system	setting	IC50
Cc1cc(O)cc(C)c1C[C@H](NC(=O)[C@@H]1CCCN1C(=O)[C@H](CCCNC(=N)N)NC(=O)[C@H](CCCNC(=N)N)N(C)C(=O)[C@@H]1CCCN1C(=O)[C@@H](CC(C)C)NC(=O)[C@@H](CC(C)C)NC(=O)[C@@H](CC(C)C)NC(=O)[C@@H](CC(C)C)NC(=O)[C@H](CCCCN)NC(=O)CN1CCN(CC(=O)O)CCN(CC(=O)O)CCN(CC(=O)O)CC1)C(=O)N[C@H](C(=O)N[C@@H](CC(C)C)C(=O)O)C(C)(C)C	NTSR1 (Homo sapiens, UniProt P30989)	ligand displacement, radioligand		pH 7.4	0.0486 µM
CC(=O)N[C@H]1[C@@H](OC(=O)NCCCOCCOCCOCCCNC(=O)O[C@H]2O[C@H](CNC(=O)OCCOCCOCCOCCOCCOCCOCCOCCOCCOCCOCCOCCOC(=O)NC[C@H]3O[C@H](OC(=O)NCCCOCCOCCOCCCNC(=O)O[C@H]4O[C@H](CO)[C@@H](O)[C@H](O)[C@H]4NC(C)=O)[C@H](NC(C)=O)[C@@H](O)[C@@H]3O)[C@@H](O)[C@H](O)[C@H]2NC(C)=O)O[C@H](CO)[C@@H](O)[C@@H]1O	wheat germ agglutinin (Triticum vulgaris)	binding to immobilised GlcNAc, inhibitor, enzyme-linked lectin		together with: HRP-labelled WGA	0.0074 µM
CN(C(=O)c1ccn2ncc(-c3ccc(C(N)=O)cc3)c2c1)c1ccc(C#N)cn1	CCKAR (Homo sapiens, UniProt P32238)	cell-free assay			> 30 µM
COc1cc(OC)cc(C(=O)/C=C/c2ccc(N(C)CCO)cc2)c1	Seed linoleate 13S-lipoxygenase-1	enzyme activity, inhibitor, absorbance			32.1 µM
C=C(NC(=O)C(=C)NC(=O)c1csc(C2=NC3c4csc(n4)C4NC(=O)c5csc(n5)C(C(C)(O)C(C)O)NC(=O)C5CSC(=N5)C(=CC)NC(=O)C(C)NC(=O)c5csc(n5)C3(CC2)NC(=O)C(C)NC(=O)C(=C)NC(=O)C(C)NC(=O)C(C(C)CC)NC2C=Cc3c(C(C)O)cc(nc3C2O)C(=O)OC4C)n1)C(N)=O (centres unmarked)	PSMB7 in 20S proteasome	trypsin-like activity, inhibitor	purified 20S proteasome	15 min preincubation, 37 °C, together with: Boc-Leu-Arg-Arg-AMC substrate	0.71 ± 0.07 µM
CN(C)c1ccc2c(c1)C(=O)N(CCS)C2=O	Metallo-beta-lactamase type 2 (Serratia marcescens, UniProt P52699)	enzyme activity, inhibitor		pH 7.0, together with: chromacef 25 µM	0.47 ± 0.04 µM
O=C1C[C@@H](c2ccc(O)c(O)c2)c2c(cc(O)c3c2O[C@H](c2ccc(O)c(O)c2)[C@H](O)C3)O1	DPP4 (Sus scrofa, UniProt P22411)	enzyme activity, inhibitor, absorbance			> 111 µM
N#Cc1c(Nc2c(Cl)ccc3ncccc23)s[nH]c1=O	SARM1 (Homo sapiens, UniProt Q6SZW1, C649A)	enzyme activity, inhibitor			1.2 µM
O=c1c(O)c(-c2ccc(O)cc2O)oc2cc(O)cc(O)c12	CD38	cyclase activity, fluorometric		together with: NGD+ substrate	35.4 ± 7.6 µM
CC(=O)NCCN(CCC(=O)NCCN(CCC(=O)NCCN(CCC(=O)NCCC(N)=O)C(=O)[C@@H](N)CCCCN)C(=O)[C@@H](N)Cc1ccccc1)C(=O)[C@@H](N)Cc1ccccc1	HIV-1 TAR RNA	Tat/TAR complex displacement, FRET		room temperature, together with: 10 nM Tat/TAR complex	122.8 ± 0.5 µM
COc1cc(C(=O)NC2CCC(N3CCC[C@@H](C)C3)CC2)c(F)cc1Nc1ncc2c(n1)N([C@H]1CCCC1(F)F)CC(F)(F)C(=O)N2C (some centres unmarked)	PLK1 (Homo sapiens, UniProt P53350)	enzyme activity, inhibitor, ADP detection			6.83e-05 µM
N#C/C(=C\c1ccc(C(N)=O)cc1)C(N)=O	Ribosomal protein S6 kinase alpha-3, C-terminal kinase domain (RPS6KA3, Homo sapiens, UniProt P51812, T493M)	kinase activity, inhibitor		together with: 0.1 mM ATP	5.2 µM
CCc1nc2sc(C(=O)c3ccc(C(C)C)cc3)c(N)c2c2c1CCCC2	CD38	enzyme activity, inhibitor, fluorescence			36.3 µM
O=C(c1ccccc1Br)N1CCN(c2ccc(F)cc2)CC1	SEC14 (Saccharomyces cerevisiae, UniProt P24280)	enzyme activity, inhibitor, radiometric			> 100 µM
C=C(C)C(=O)Nc1ccc(-c2c(-c3ccc(Oc4cccc(C)n4)cc3)c3c(N)ncnc3n2C)cc1	FGFR2 (Homo sapiens, UniProt P21802)	Caliper mobility shift		30 min preincubation, together with: 100 µM ATP	0.004 µM
COCCCN1CCc2c(Cc3ccc(Cl)cc3)[nH]c3c(OC(F)F)ccc(c23)C1=O	PDE7A (Homo sapiens, UniProt Q13946)	enzyme activity, inhibitor			> 10 µM
CCCn1cnc(C[C@H](NC(=O)c2cnccn2)C(=O)N2CCC[C@H]2C(N)=O)c1	Thyrotropin-releasing hormone receptor (Mus musculus, UniProt P21761)	ligand displacement, radioligand			> 50 µM
CCn1c(SC(C)C(=O)NC2CCCCC2)nnc1C1CCN(C(=O)Nc2ccccc2)CC1 (centres unmarked)	Seed linoleate 13S-lipoxygenase-1	enzyme activity, inhibitor			< 7 µM and 4.93 µM
Nc1ncnc2c1ncn2C1OC(COP(=O)(O)O)C(O)C1O (centres unmarked)	Fructose-1,6-bisphosphatase 1 (Mus musculus, UniProt Q9QXD6, Y114F)	enzyme activity, inhibitor		His-tagged mouse Y114F mutant	13300 µM
CCOC(=O)N1CCN(Cc2nc3c(c(=O)n(C)c(=O)n3C)n2CCC(C)C)CC1	ALDH2 (Homo sapiens, UniProt P05091)	enzyme activity, inhibitor			> 57 µM
CC(C)C[C@@H](NC(=O)[C@@H](Cc1ccccc1)NC(=O)[C@H]1CCCN1C(=O)[C@@H](CCC(N)=O)NC(=O)[C@H](NC(=O)[C@H]1CCCN1C(=O)[C@@H](CCCNC(=N)N)NC(=O)[C@@H](CO)NC(=O)[C@@H](CCC(N)=O)NC(=O)[C@@H](CC(=O)O)NC(=O)[C@H](N)[C@H](C)O)C(C)C)C(=O)N[C@H](CC(N)=O)C(=O)N[C@H](CC(C)C)C(=O)N[C@@H](C(=O)N[C@@H](C(=O)N1CCC[C@@H]1C(=O)N[C@H](CCCNC(=N)N)C(=O)N[C@H](CCCCN)C(=O)N1CCC[C@@H]1C(=O)N[C@H](CCCNC(=N)N)C(N)=O)[C@H](C)O)[C@H](C)O	Mapk14 (Mus musculus, UniProt P47811)	enzyme activity, inhibitor, radiometric		pH 7.5	1400 µM
CNC(=O)C1CCN(c2cc(C)c(F)cc2NC(=O)c2ccc(-c3c(C)ccc4[nH]ncc34)c(C)c2)CC1	YES1 (Homo sapiens, UniProt P07947)	target engagement in cells, BRET			8.83 µM

Some of these lines once more:
SMILES	target	assay	system	setting	IC50
C=C(NC(=O)C(=C)NC(=O)c1csc(C2=NC3c4csc(n4)C4NC(=O)c5csc(n5)C(C(C)(O)C(C)O)NC(=O)C5CSC(=N5)C(=CC)NC(=O)C(C)NC(=O)c5csc(n5)C3(CC2)NC(=O)C(C)NC(=O)C(=C)NC(=O)C(C)NC(=O)C(C(C)CC)NC2C=Cc3c(C(C)O)cc(nc3C2O)C(=O)OC4C)n1)C(N)=O (centres unmarked)	PSMB7 in 20S proteasome	trypsin-like activity, inhibitor	purified 20S proteasome	15 min preincubation, 37 °C, together with: Boc-Leu-Arg-Arg-AMC substrate	0.71 ± 0.07 µM
Nc1ncnc2c1ncn2C1OC(COP(=O)(O)O)C(O)C1O (centres unmarked)	Fructose-1,6-bisphosphatase 1 (Mus musculus, UniProt Q9QXD6, Y114F)	enzyme activity, inhibitor		His-tagged mouse Y114F mutant	13300 µM
O=C1Nc2ccc(-c3ccc(C(=O)N4CCOCC4)cc3)cc2/C1=C/c1ccc(N2CCNCC2)cc1	FGFR4 (Homo sapiens, UniProt P22455)	enzyme activity, inhibitor			28.1 µM
